Measurements collected from several papers.
Each line is one published result; not all experiments were run side by side. Numbers after ± are the reported error.

SMILES	test	system	setting	measurement	result
COc1ccc(S(=O)(=O)N2CCCCC2)cc1C	–	human liver microsomes	–	intrinsic clearance	49 L/min
CC(C)(C)[C@H](NC(=O)C(F)(F)F)C(=O)N1C[C@H]2[C@@H]([C@H]1C(=O)N[C@H](C#N)C[C@@H]1CCNC1=O)C2(C)C	–	mouse liver microsomes	microsomes 0.5 mg/mL	intrinsic clearance	93.4 µL/min/mg
C[C@H]1COCCN1c1nc(NCc2cccnc2C(F)(F)F)c2cccnc2n1	–	human hepatocytes	–	intrinsic clearance	3.1 µL/min/10⁶ cells
Cc1c(COC(=O)[C@@H]2[C@H](/C=C(\Cl)C(F)(F)F)C2(C)C)cccc1-c1ccccc1 (racemic)	–	pooled human liver cytosol	scaled to in vivo	intrinsic clearance	0 L/h/g liver
CC(C)C[C@H](NC(=O)[C@H](Cc1ccccc1)NC(=O)[C@H](Cc1ccccc1)NC(=O)Cc1ccc(-c2ccccc2)cc1)C(=O)N[C@@H](CCCCN)C(=O)N[C@@H](CCCNC(=N)N)C(=O)N[C@H](C(=O)N[C@@H](Cc1c[nH]c2ccccc12)C(=O)N[C@@H](CCCCN)C(=O)N[C@@H](CCCNC(=N)N)C(=O)O)C(C)C	–	mouse liver microsomes	–	intrinsic clearance	1350 mL/min/kg
C[C@]12CC[C@H]3[C@@H](CC=C4CC(O)CC[C@@]43CO)[C@@H]1CCC2O (stereo partly drawn)	–	human liver microsomes	–	intrinsic clearance	19.2 µL/min/mg protein
C[C@]12CC[C@H]3[C@@H](CCC4=CC(=O)CC[C@@]43C)[C@@H]1CC[C@@H]2O	–	mouse liver microsomes	scaled to liver	intrinsic clearance	1560 mL/min/kg
CCCCCCCCCN(C)C	RT-S9 substrate depletion	rainbow trout	shaken incubation	intrinsic clearance in vivo	326 mL/h/g liver
O=C/C=C/c1ccccc1	metabolic stability	human liver microsomes	10 µM, pH 7.4	intrinsic clearance (scaled)	143.3 ± 0.12 mL/min/kg

Some of these lines once more:
SMILES	test	system	setting	measurement	result
C[C@]12CC[C@H]3[C@@H](CC=C4CC(O)CC[C@@]43CO)[C@@H]1CCC2O (stereo partly drawn)	–	human liver microsomes	–	intrinsic clearance	19.2 µL/min/mg protein
